Published values collected from several papers.
Compare with care: the assays were run in different laboratories. Numbers after ± are the reported error.
OPRK1: Kappa-type opioid receptor (OPRK1, Homo sapiens, UniProt P41145)
UniProt P41145, sequence (whole entry, looked up): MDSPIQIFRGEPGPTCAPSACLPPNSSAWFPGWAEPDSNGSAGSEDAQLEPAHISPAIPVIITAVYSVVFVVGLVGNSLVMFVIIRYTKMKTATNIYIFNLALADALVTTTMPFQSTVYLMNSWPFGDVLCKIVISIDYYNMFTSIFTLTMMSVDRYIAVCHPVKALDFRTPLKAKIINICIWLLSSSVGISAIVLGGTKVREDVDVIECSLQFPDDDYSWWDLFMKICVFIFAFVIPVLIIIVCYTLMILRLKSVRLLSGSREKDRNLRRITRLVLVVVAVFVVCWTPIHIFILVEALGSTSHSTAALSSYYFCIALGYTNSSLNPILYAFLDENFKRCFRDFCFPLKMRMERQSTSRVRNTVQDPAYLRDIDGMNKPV
UniProt P43220, sequence (whole entry, looked up): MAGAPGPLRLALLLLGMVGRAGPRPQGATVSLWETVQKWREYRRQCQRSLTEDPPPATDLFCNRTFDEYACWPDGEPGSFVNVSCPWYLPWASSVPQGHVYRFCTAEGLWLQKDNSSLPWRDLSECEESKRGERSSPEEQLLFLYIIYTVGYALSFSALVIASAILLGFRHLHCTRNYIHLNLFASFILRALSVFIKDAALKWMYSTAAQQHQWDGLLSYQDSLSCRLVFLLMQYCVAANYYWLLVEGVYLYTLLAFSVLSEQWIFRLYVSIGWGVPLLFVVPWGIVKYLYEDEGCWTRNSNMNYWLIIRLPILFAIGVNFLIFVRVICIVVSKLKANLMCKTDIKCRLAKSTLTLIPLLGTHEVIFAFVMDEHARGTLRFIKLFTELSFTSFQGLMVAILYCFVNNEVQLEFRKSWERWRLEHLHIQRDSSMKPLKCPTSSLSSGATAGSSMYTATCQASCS
UniProt P41146, sequence (whole entry, looked up): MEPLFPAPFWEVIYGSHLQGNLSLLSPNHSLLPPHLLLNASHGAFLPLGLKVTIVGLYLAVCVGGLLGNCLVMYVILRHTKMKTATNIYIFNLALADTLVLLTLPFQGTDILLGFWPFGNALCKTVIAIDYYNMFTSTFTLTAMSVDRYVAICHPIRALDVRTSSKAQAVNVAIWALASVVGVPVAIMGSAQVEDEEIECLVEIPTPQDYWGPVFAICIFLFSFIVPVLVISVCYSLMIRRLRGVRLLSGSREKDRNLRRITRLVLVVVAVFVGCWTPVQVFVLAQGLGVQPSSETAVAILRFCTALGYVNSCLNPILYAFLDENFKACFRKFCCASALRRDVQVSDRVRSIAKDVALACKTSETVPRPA
UniProt P41143, sequence (whole entry, looked up): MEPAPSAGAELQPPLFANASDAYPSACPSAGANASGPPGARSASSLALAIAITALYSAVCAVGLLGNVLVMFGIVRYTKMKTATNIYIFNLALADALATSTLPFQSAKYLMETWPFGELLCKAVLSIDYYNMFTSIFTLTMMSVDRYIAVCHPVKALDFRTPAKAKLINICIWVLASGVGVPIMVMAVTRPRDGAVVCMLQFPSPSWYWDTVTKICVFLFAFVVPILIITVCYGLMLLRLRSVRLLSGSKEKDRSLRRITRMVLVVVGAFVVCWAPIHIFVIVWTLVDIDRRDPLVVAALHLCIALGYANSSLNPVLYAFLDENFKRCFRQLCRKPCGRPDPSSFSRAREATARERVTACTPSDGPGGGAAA
UniProt P48546, sequence (whole entry, looked up): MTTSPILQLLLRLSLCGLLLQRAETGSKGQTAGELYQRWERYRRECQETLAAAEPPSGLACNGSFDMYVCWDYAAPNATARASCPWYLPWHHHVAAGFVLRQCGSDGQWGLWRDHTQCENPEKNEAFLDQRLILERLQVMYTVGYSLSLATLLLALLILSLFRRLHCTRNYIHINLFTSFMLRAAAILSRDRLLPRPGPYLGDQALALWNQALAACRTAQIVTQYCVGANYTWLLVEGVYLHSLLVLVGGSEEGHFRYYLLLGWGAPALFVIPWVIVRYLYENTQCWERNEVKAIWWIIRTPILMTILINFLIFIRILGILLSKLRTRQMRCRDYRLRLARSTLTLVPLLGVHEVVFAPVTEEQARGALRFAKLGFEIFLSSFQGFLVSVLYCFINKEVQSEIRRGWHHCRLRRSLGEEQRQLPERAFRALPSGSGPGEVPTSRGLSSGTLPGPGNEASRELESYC
UniProt Q96NY8, sequence (whole entry, looked up): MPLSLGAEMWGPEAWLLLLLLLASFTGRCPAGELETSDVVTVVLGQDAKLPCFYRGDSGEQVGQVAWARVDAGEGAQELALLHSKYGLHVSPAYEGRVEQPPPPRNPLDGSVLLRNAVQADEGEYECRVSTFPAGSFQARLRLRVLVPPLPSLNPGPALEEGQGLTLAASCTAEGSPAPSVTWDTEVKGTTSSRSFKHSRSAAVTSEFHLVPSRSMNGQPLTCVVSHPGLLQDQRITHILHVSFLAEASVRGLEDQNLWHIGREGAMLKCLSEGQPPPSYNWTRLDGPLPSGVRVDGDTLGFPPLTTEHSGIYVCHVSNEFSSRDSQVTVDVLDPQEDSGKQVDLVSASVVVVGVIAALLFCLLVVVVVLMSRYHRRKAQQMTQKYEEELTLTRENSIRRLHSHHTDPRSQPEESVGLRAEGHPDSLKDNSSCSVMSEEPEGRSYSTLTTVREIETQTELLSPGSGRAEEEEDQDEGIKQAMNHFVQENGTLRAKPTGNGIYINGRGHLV

| SMILES | target | assay | system | conditions | endpoint | value |
| --- | --- | --- | --- | --- | --- | --- |
| Cc1cc(O)cc(C)c1C[C@H](N)C(=O)NCC(=O)NCC(=O)N[C@@H](Cc1ccccc1)C(=O)N[C@H](C(=O)NCC(=O)N[C@@H](C)C(=O)N[C@@H](CCCNC(=N)N)C(=O)N[C@@H](CCCCN)C(=O)N[C@@H](CO)C(=O)N[C@@H](C)C(=O)N[C@@H](CCCNC(=N)N)C(=O)N[C@@H](CCCCN)C(N)=O)[C@@H](C)O | Nociceptin receptor, with Gβ1 (OPRL1, Homo sapiens, UniProt P41146) | G-protein interaction, agonist, BRET, measured: Gβ1 | HEK293 cell membranes | 15 min, room temperature | EC50 | 0.38 nM |
| CC[C@H](C)[C@@H]1NC(=O)[C@@H](C)NC(=O)[C@H](CCC(=O)N[C@@H](CCCCN)C(N)=O)NC(=O)[C@@H](C)NC(=O)[C@@H](C)NC(=O)[C@H](Cc2c[nH]c3ccccc23)NC(=O)[C@H](Cc2ccc(O)cc2)NC(=O)[C@H](CCCNC(=N)N)NC(=O)[C@H](Cc2ccc(F)cc2)NC1=O | Gag polyprotein, p6 deleted (gag, Human immunodeficiency virus type 1 group M subtype B, UniProt P03347) | fluorescence anisotropy | HIV-1 | together with: 100 nM fluorescein-labelled peptide | Kd | 800 to 900 nM |
| CC[C@H](C)[C@H](NC(=O)[C@H](CCCNC(=N)N)NC(=O)[C@H](CCCNC(=N)N)NC(=O)[C@H](CC(C)C)NC(=O)[C@H](Cc1ccccc1)NC(=O)CNC(=O)CNC(=O)[C@@H](N)Cc1ccc(O)cc1)C(=O)N[C@@H](CCCNC(=N)N)C(=O)N1CCC[C@H]1C(=O)O | OPRK1 | cAMP, agonist, TR-FRET |  |  | EC50 | 1.36 nM |
| CC[C@H](C)[C@@H]([C@@H](CC(=O)N1CCC[C@H]1[C@H](OC)[C@@H](C)C(=O)N[C@H](C)[C@@H](O)c1ccccc1)OC)N(C)C(=O)[C@@H](NC(=O)[C@H](C(C)C)N(C)C(=O)OCc1ccc(NC(=O)[C@H](CCCNC(N)=O)NC(=O)[C@@H](NC(=O)CCCC(=O)NCCC(=O)N(C)CC(=O)N(C)CC(=O)N(C)CC(=O)N(C)CC(=O)N(C)CC(=O)N(C)CC(=O)N(C)CC(=O)N(C)CC(=O)N(C)CC(=O)N(C)CC(=O)N[C@H]2CSCCC(=O)N3CN4CN(C3)C(=O)CCSC[C@H](NC(=O)[C@@H](CC(=O)O)NC(=O)[C@H](Cc3cccc5ccccc35)NC(=O)[C@@H]3CCCN3C2=O)C(=O)N[C@@H](CCSC)C(=O)N[C@@H](CCCCNC(=N)N)C(=O)N[C@@H](CC(=O)O)C(=O)N[C@@H](Cc2c[nH]c3ccccc23)C(=O)N[C@@H](CO)C(=O)N[C@@H]([C@@H](C)O)C(=O)N2CCC[C@H]2C(=O)N2C[C@H](O)C[C@H]2C(=O)N[C@@H](Cc2c[nH]c3ccccc23)C(=O)N[C@H](C(N)=O)CSCCC4=O)C(C)C)cc1)C(C)C | Nectin-4 (Homo sapiens, UniProt Q96NY8) | binding, SPR |  |  | Kd | 2.5 nM |
| CC(C)C[C@H](NC(=O)[C@H](CO[C@@H]1O[C@H](CO)[C@@H](O[C@@H]2O[C@H](CO)[C@H](O)[C@H](O)[C@H]2O)[C@H](O)[C@H]1O)NC(=O)[C@H](CCCCN)NC(=O)[C@H](CC(C)C)NC(=O)[C@H](C)NC(=O)[C@H](CCCCN)NC(=O)[C@H](CCC(=O)O)NC(=O)CNC(=O)[C@H](CC(C)C)NC(=O)[C@H](CC(N)=O)NC(=O)[C@@H]1CCCN1C(=O)[C@H](CC(C)C)NC(=O)[C@H](Cc1ccccc1)NC(=O)CNC(=O)[C@H](NC(=O)[C@@H](N)Cc1ccc(O)cc1)[C@H](C)O)C(N)=O | OPRK1 | ligand displacement, radioligand |  | pH 7.5, cell membranes | Ki | 23 nM |
| CCCCCCCCCCCCCCCC(=O)N[C@@H](CCC(=O)NCCCC[C@H](NC(=O)[C@H](CC(=O)O)NC(=O)[C@H](CO)NC(=O)[C@@H](NC(=O)[C@H](Cc1ccccc1)NC(=O)[C@@H](NC(=O)CNC(=O)[C@H](CCC(N)=O)NC(=O)C(C)(C)NC(=O)[C@@H](N)Cc1c[nH]cn1)[C@@H](C)O)[C@@H](C)O)C(=O)N[C@@H](CO)C(=O)N[C@@H](CCCCN)C(=O)N[C@@H](Cc1ccc(O)cc1)C(=O)N[C@@H](CC(C)C)C(=O)N[C@@H](CC(=O)O)C(=O)N[C@@H](CCC(=O)O)C(=O)N[C@@H](CCCNC(=N)N)C(=O)N[C@@H](C)C(=O)N[C@@H](C)C(=O)N[C@@H](CCC(N)=O)C(=O)N[C@@H](CC(=O)O)C(=O)N[C@@H](Cc1ccccc1)C(=O)N[C@H](C(=O)N[C@@H](CCC(N)=O)C(=O)N[C@@H](Cc1c[nH]c2ccccc12)C(=O)N[C@@H](CC(C)C)C(=O)N[C@@H](CC(C)C)C(=O)N[C@@H](CC(=O)O)C(=O)NCC(=O)NCC(=O)N1CCC[C@H]1C(=O)N[C@@H](CO)C(=O)N[C@@H](CO)C(=O)NCC(=O)N[C@@H](C)C(=O)N1CCC[C@H]1C(=O)N1CCC[C@H]1C(=O)N1CCC[C@H]1C(=O)N[C@@H](CO)C(N)=O)C(C)C)C(=O)O | GLP1R (Homo sapiens, UniProt P43220) | reporter gene, agonist, CRE-luciferase reporter | BHK cells | 3 h, 37 °C, 0% HSA | EC50 | 0.0013 nM |
| CC(C)C[C@H](NC(=O)[C@H](CO[C@@H]1O[C@H](CO)[C@@H](O[C@@H]2O[C@H](CO)[C@H](O)[C@H](O)[C@H]2O)[C@H](O)[C@H]1O)NC(=O)[C@H](CCCCN)NC(=O)[C@H](CC(C)C)NC(=O)CNC(=O)[C@H](CCCCN)NC(=O)[C@H](CCC(=O)O)NC(=O)CNC(=O)[C@H](CC(C)C)NC(=O)[C@H](CC(N)=O)NC(=O)[C@@H]1CCCN1C(=O)[C@H](CC(C)C)NC(=O)[C@H](Cc1ccccc1)NC(=O)CNC(=O)[C@H](NC(=O)[C@@H](N)Cc1ccc(O)cc1)[C@H](C)O)C(N)=O | OPRK1 | ligand displacement, radioligand |  | pH 7.5, cell membranes | Ki | 8.4 nM |
| CC[C@H](C)[C@@H]1NC(=O)[C@H](CC(=O)O)NC(=O)[C@H]([C@@H](C)O)NC(=O)[C@@H]2CSSC[C@@H]3NC(=O)[C@H](CC(C)C)NC(=O)[C@H](CC(N)=O)NC(=O)[C@H](CC(C)C)NC(=O)[C@H](CCCNC(=N)N)NC(=O)[C@H](Cc4ccc(O)cc4)NC(=O)[C@H](CCCCN)NC(=O)[C@H](CCSC)NC(=O)[C@H](CO)NC(=O)[C@H]([C@@H](C)O)NC(=O)[C@H](CCCNC(=N)N)NC(=O)[C@H](CSSC[C@H](NC(=O)[C@H]([C@@H](C)O)NC(=O)[C@H](CCCCN)NC(=O)[C@H](CCCNC(=N)N)NC3=O)C(=O)NCC(=O)N[C@@H](CO)C(=O)N[C@H](C(=O)O)CSSC[C@H](NC(=O)[C@@H](NC(=O)[C@@H](N)CCCNC(=N)N)[C@@H](C)O)C(=O)N[C@@H](CCCCN)C(=O)N[C@@H](CC(=O)O)C(=O)N[C@@H](CC(C)C)C(=O)N[C@@H]([C@@H](C)CC)C(=O)N3CCC[C@H]3C(=O)N[C@@H](C(C)C)C(=O)N[C@@H](CO)C(=O)N[C@@H](CCC(=O)O)C(=O)N2)NC(=O)[C@H](CCCNC(=N)N)NC1=O | KcsA-Shaker channel | potassium current, inhibitor, two-electrode voltage clamp | Xenopus oocytes |  | Ki | 0.94 ± 0.08 nM |
| CC[C@H](C)[C@H](NC(=O)[C@H](CCCN)NC(=O)[C@H](CC(=O)O)NC(=O)[C@H](CC(C)C)NC(=O)C(C)(CC(C)C)NC(=O)[C@@H](NC(=O)[C@H](CO)NC(=O)[C@H](Cc1ccc(O)cc1)NC(=O)[C@H](CC(=O)O)NC(=O)[C@H](CO)NC(=O)[C@@H](NC(=O)[C@H](Cc1ccccc1)NC(=O)[C@@H](NC(=O)CNC(=O)[C@H](CCC(=O)O)NC(=O)C(C)(C)NC(=O)[C@@H](N)Cc1ccc(O)cc1)[C@@H](C)O)[C@@H](C)CC)[C@@H](C)CC)C(=O)N[C@@H](Cc1c[nH]cn1)C(=O)N[C@@H](CCC(N)=O)C(=O)NC(C)(C)C(=O)N[C@@H](CC(=O)O)C(=O)N[C@@H](Cc1ccccc1)C(=O)N[C@H](C(=O)N[C@@H](CCC(=O)O)C(=O)N[C@@H](Cc1ccc(O)cc1)C(=O)N[C@@H](CCCCNC(=O)COCCOCCNC(=O)COCCOCCNC(=O)CC[C@H](NC(=O)CCCCCCCCCCCCCCCCCCC(=O)O)C(=O)O)C(=O)N[C@@H](CC(C)C)C(=O)N[C@@H](CCC(=O)O)C(=O)NCC(=O)NCC(=O)N1CCC[C@H]1C(=O)N[C@@H](CO)C(=O)N[C@@H](CO)C(=O)NCC(=O)N[C@@H](C)C(=O)N1CCC[C@H]1C(=O)N1CCC[C@H]1C(=O)N1CCC[C@H]1C(=O)N[C@@H](CO)C(N)=O)C(C)C (stereo partly shown) | GIPR (Homo sapiens, UniProt P48546) | cAMP accumulation, agonist | HEK293 low GIPR expression | together with: albumin, human serum, 0.1%, casein 1.0% | EC50 | 10.2 nM |
| CC(C)C[C@H](NC(=O)[C@H](CO)NC(=O)[C@H](CCCCN)NC(=O)[C@H](CC(C)C)NC(=O)[C@H](C)NC(=O)[C@H](CCCCN)NC(=O)[C@H](CCC(=O)O)NC(=O)CNC(=O)[C@H](CC(C)C)NC(=O)[C@H](CC(N)=O)NC(=O)[C@@H]1CCCN1C(=O)[C@H](CC(C)C)NC(=O)[C@H](Cc1ccccc1)NC(=O)CNC(=O)[C@H](NC(=O)[C@@H](N)Cc1ccc(O)cc1)[C@H](C)O)C(N)=O | OPRD1 (Homo sapiens, UniProt P41143) | ligand displacement, radioligand |  | pH 7.5, cell membranes | Ki | 11 nM |

Some of these lines once more:
| SMILES | target | assay | system | conditions | endpoint | value |
| --- | --- | --- | --- | --- | --- | --- |
| CC(C)C[C@H](NC(=O)[C@H](CO)NC(=O)[C@H](CCCCN)NC(=O)[C@H](CC(C)C)NC(=O)[C@H](C)NC(=O)[C@H](CCCCN)NC(=O)[C@H](CCC(=O)O)NC(=O)CNC(=O)[C@H](CC(C)C)NC(=O)[C@H](CC(N)=O)NC(=O)[C@@H]1CCCN1C(=O)[C@H](CC(C)C)NC(=O)[C@H](Cc1ccccc1)NC(=O)CNC(=O)[C@H](NC(=O)[C@@H](N)Cc1ccc(O)cc1)[C@H](C)O)C(N)=O | OPRD1 (Homo sapiens, UniProt P41143) | ligand displacement, radioligand |  | pH 7.5, cell membranes | Ki | 11 nM |
